Published values gathered from unrelated publications.
Each numbered part is a random draw from the data of one study; scales do not carry over between parts. Positions count from the first letter of the parent shown.

Series 1
Target: Histone acetyltransferase KAT6A, winged helix 2, GST fusion (KAT6A, Homo sapiens, UniProt Q92794, residues 85-181)
Technique: protein binding microarray
Form: double-stranded DNA, one strand shown
Sample: in vitro
Concentration: not given
Setting: 8-mer, flanks averaged, mean of 2 arrays, mostly near background
Relative to: not given
Reading: higher = stronger binding
Residues (chain): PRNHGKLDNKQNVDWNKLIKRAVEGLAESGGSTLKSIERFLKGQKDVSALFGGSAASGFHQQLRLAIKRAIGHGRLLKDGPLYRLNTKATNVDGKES
| Oligonucleotide | E-score |
| --- | --- |
| AAAACGGA | 0.0322 |
| CGCTGGGA | 0.121 |
| AATGGGAG | -0.15 |
| ATAGTTAG | 0.00831 |
| AGGTCGAC | 0.103 |
| CTCCGGGC | 0.0432 |
| GACTGGAA | -0.153 |
| CCTACCAC | -0.218 |
| CCTAAGGA | -0.0982 |
| GTCTCGGA | 0.0356 |
| AGGCGCAT | 0.0924 |
| GATGACTA | -0.15 |
| CGTAGGCA | -0.0683 |
| AAAGTCCT | -0.0938 |
| CGCTGGAG | 0.0759 |
| TCTACCCA | -0.0527 |
| GCCCGCAA | 0.155 |
| AACGACCG | -0.0704 |
| AGGAAGAC | -0.0156 |
| CGGAAGTC | -0.0648 |

Series 2
Target: ABI1, truncated, D143A, DHFR fusion (Arabidopsis thaliana, UniProt P49597)
Technique: DHFR PCA, dose-response
Sample: yeast
Setting: Hill fit, not affinity, not high confidence
Together with: (+)-ABA, dose series
Reading: lower = more sensitive
Parent: PYL1, truncated, DHFR fusion (Arabidopsis thaliana, UniProt Q8VZS8); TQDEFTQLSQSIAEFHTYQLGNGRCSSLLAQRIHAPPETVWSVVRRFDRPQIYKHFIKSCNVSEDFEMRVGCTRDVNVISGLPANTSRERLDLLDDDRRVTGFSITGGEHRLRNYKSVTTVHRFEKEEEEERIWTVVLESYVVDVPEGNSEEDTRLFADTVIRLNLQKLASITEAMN
| Substitution | ABA EC50 [µM] |
| --- | --- |
| E89P | 0.0632 |
| L156P | 4.65 |
| Q51P | 531 |
| A84H | 0.814 |
| N149Q | 241 |
| T119Y | 956 |
| G102I | 197 |
| K54F | 65.7 |
| A84T | 272 |
| L138P | 0.0667 |
| G81Y | 1500 |
| L82E | 0.212 |
| V44Y | 1390 |
| V121G | 101 |
| G81W | 2.56 |
| F157G | 20.3 |
| N149P | 749 |
| G108Y | 1230 |
| T135E | 487 |
| L91R | 85.1 |
| L93P | 2.15 |
| R74Q | 31 |
| R74D | 56.3 |

Series 3
Target: CCNB1, cyclin fold, Cln2 fusion (human)
Technique: yeast growth competition, sequencing
Sample: yeast
Setting: strong parent motif
Relative to: not given
Reading: higher = stronger binding
Parent: MICAL3 docking peptide (human); LQLRRQLSFSEDS; partner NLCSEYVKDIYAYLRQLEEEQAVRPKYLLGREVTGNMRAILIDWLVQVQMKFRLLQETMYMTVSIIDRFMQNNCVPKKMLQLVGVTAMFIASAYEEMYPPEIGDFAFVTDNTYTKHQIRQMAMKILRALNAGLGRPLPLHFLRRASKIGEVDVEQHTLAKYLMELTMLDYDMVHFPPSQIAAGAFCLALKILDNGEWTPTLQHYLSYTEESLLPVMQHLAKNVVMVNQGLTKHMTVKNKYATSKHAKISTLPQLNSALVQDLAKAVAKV
| Substitution | normalised enrichment score |
| --- | --- |
| E11P | 2.17 |
| D12V | 4.12 |
| S8H | 2.15 |
| Q2A | 4.71 |
| D12C | 4.27 |
| R5T | 0.504 |
| F9A | -0.0534 |
| R4P | 1.06 |
| S8W | 0.985 |
| R4F | 3.86 |
| R5G | 0.313 |
| R4D | 0.49 |
| E11W | 1.54 |
| Q6T | 3.78 |
| E11K | 1.77 |
| S8P | 0.535 |
| F9D | -0.112 |
| S10E | 4.57 |
| E11I | 1.49 |
| Q6S | 3.33 |
| L7G | -0.0248 |
| S8E | 2.45 |
| L3A | 2.33 |

Series 4
Target: RING finger protein unkempt homolog, zinc fingers 1-6, SBP tag (UNK, Homo sapiens, UniProt Q9C0B0, residues 30-357)
Sequence of UniProt Q9C0B0 (30-357, looked up): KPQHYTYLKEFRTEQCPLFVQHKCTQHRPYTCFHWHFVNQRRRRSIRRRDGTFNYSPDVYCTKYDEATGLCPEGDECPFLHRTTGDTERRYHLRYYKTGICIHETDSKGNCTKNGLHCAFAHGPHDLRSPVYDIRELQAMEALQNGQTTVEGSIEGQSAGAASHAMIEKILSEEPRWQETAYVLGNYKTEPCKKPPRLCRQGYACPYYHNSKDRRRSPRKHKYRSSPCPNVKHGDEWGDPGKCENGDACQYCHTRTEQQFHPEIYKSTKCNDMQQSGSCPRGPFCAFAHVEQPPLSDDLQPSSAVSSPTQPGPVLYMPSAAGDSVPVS
Technique: RNA Bind-n-Seq
Form: RNA
Sample: in vitro
Concentration: 100 nM
Setting: RNA with constant flanks, vertebrate orthologous sites, ends assumed
Relative to: input RNA pool
Reading: higher = stronger binding
Constant ends, left off below: GGGAGUUCUACAGUCCGACGAUC … CAACAGAGGAUUGAGCAUCA
| Oligonucleotide | bound/input enrichment [ratio] |
| --- | --- |
| UUGGGACCAGCUCUCCAAAUAAGAAUAGUAGUAAAAAAAAUAAGCAAAAUGAUAUUUGUAUAGAAAAAACAGAAGUUAAAUCAUGUAAAGUAAAUGCUGCCAACAUAGCAAGCCCUAAAG | 3.24 |
| CAGCUGAUUCACUGAUUGGGAGAGCUGCACAUAUAGCUGUUCUUGAUUCUGAAAUAUUUUUAGAGAAAUUUUUUCUGGUUGCUGCCCUUAAAUAUUUCCAAUAGGAUAAAAGCAUUGUUA | 0.971 |
| UCAUUGUACUGCAAAAAUCAUCCUCGUUCUAAAUUAGCCACAGUGAUAACUAGUCUGCAGUAGUAGAAGCAUUUACCUUUUAAAUUACCUGCUUUGUCUGAUACCUGAAACACAUCAAAA | 1.05 |
| GUGCCACAGUGGGUUUAUCCCCUCGAUGAGGUGGAGUCCACCUUCGGCAUUCUGUGGUGCCGGAACCAGUCAUCUCCCCAUUCCGUUCCCCACAGACGGGCUUUUGAAAGUCUCUGGGUG | 0.345 |
| UAUUAGUGUUGUACCAGCCUAUUAACCUCUUGUCUGUGCACAGCUUCAAAUGUUACCGUCUAGUUAGAUUUUUAUUUAAAAUAUGAAAAACUGCUUUUCCCAAGACGUUUUUUAAAAACA | 1.61 |
| AUCCCUCAGUGACAGUAUGCCGUCCGUAGCAGAUUCCCACUCGAGUCACUUUUCUGAAUUUAGUUGUUCUGACCUAGAAAGCAUGAAAACUUCUUGUAGUCAUGGUUCCACUGAUUAUCA | 0.441 |
| UAUUCAGUCAUGGAGAAAAAGUUAUUAAAAUAAUUUUAUGGCACUGCUCUUUACUUUUAUUAGGUUUACUGAAGUUAGGGUUCUUGUUCACAGAAAACAGGAGCUGACUAUUGAGAAAGC | 0.331 |
| UGAGGUGUACUUGUGGGGCACUGCUGGCUGCUUAGCGUCGUUAAAUUUGUGACCUUGACAUCAUAGAUAGGCUUGUGGUGUUUUUUUAAUUUAAAGAUAUUAAGACUUAAUUCACUAAAA | 0.605 |
| GUGUGUGGGGUAGCCUUGGCCCCUGCCUUGGCCUUGCCUCUCCUCCCUGUCACCUGCCCCUAGUUAUUUUUUUUGACCACCACGUGAUUAUGGUCGGUGCUGCCUCCCCCGACCUGCUCA | 8.23 |
| GAAUUGAAAAACCAGAGCUUCACCCAGGCCCCUGUUCACUAGGAGAUACAAAUAUUACAUUAGAAGAACAAUUAAACUCCAUAAAUUUAUCUUUUCAGGAUGAUCCAGAAUCCAGUACCA | 1.4 |
| CUCCUAGCGUCAUACCAGCAUCUUCGCUAUCAGACGUGCACAGCUUACAAAGGAACAGUCUAGUGGUAUGGGUUAUUUUCAUUUCAAAACCUGCUUUUUUUUUUCCCAAGACUGAAAAAA | 0.51 |

Series 5
Target: RNA binding protein fox-1 homolog 2, RRM domain, GST-SBP tag (RBFOX2, Homo sapiens, UniProt O43251-10, residues 100-194)
Technique: RNA Bind-n-Seq
Form: RNA
Sample: in vitro
Concentration: 365 nM
Setting: natural RNA segment, single round, ends assumed
Relative to: no-protein control
Reading: higher = stronger binding
Constant ends, left off below: GGGAGUUCUACAGUCCGACGAUC … UGGAAUUCUCGGGUGCCAA
Residues (chain): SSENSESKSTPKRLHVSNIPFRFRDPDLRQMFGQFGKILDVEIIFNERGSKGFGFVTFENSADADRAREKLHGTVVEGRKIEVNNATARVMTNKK
| Oligonucleotide | RBNS enrichment (R) |
| --- | --- |
| AGCAAACGUCCACUGUCCUUUCUCUAUCCCCCUCACUCAGCCUACACGUUACUCCAGCGCUACUCUUGCCAUUACGCCCCGUGUUUCCGAGCACAGCUGGUCCUACCCCA | 1.18 |
| CUGCUGCGAUCCGGCAGCCUCUCUUCACUGCUACAUGUGCUGGAAGGACAAAUAAAUAAUUGUGGUUGUGUUCUUAAUGGGGACGAGCAGACACACUGAUCUGAACAUCU | 0.238 |
| UGAAUGAUGCAUUAAUUACUGACUGUCCUAGUACAUUGGAAGCUUUUGUUUAUAGGAACUUGUAGGGCUCAUUUUGGUUUCAUUGAAACAGUAUCUAAUUAUAAAUUAGC | 1.14 |
| UAGUCCUAUUCAGAUACAUCAAAUAUCAGUGAAUGCUUUACUAUUCGCACAUUUAAGCAUCUUUGUUUUACAUAAAAUUAGAGUAUGAAAACCAGUGUUCAAUUUUUUAU | 1.22 |
| GUCUGGUCUCCCUGCUCUUUCUGCAUGGUUGUGUCCCUAGUCCUAAGCUUUGGUUCUUUAGGGUGACUGUGGUAAGAAGGAUAUUUAAUCAUGACAUGCACGGACACGUA | 0.7 |
| UUCCACAUUAAUUAGAUUUUCUUGCAGUUUUUUUAUGGCAUUUUUUUAAAGAUGCCCUAAGUGUUGAAGAAGAGUUUGCAAAUGCAACAAAAUAUUUAAUUACCGGUUGU | 1.14 |
| GUCUCGGCCAGUGCCGUGGCCUGCUGGGAAGGGUCAGAGUCCUCACUGUCCCCCGUCUGUCCAGCAAUAGUCUGUCCAGAGACAAGCUUCUGUAGCGGCAGGGCUUCCGC | 0.245 |
| UGGUGAAAGCACUGCUGCCCAGCCUCCAAGCUCCAUCUCCACUCCAGAUUUUUUACAGCUGCCUGCAGUACUUUACCUCCUAUCAGAAGUUUCUCAGCUCCCAAGGCUCU | 0.421 |
| CUCUUCUUGCUGUCUCUCUCCUUUUAGCAGUCACUUCUGAGAAGUAAAGAACCUGACUUAGUGCUGGAGUUUGUGCUUGGUUUAUCUUCUUUGCGAUCUCCAAGCUAAGC | 0.321 |
| GACCUCCGUUUGUACAUUCCAUCACACCCAGCAAUAGCUGUACAUUGUAGUCAGCAACCAUUUUACUUUGUGUGUUUUUUCACGACUGAACACCAGCUGCUAUCAAGCAA | 0.488 |
| UAUUCCCUGACGGAGCUGUUAUGUGCCGCUCUAGCGAAGGCCCCAGCCGGGAUGCUAGGCCUAAUUGUUCAGCGUGGAGAUGGCAACUCACGUGGUGCCCUAGGUGCAGC | 0.886 |
| UCUGACUGGAAGAAUUUAGGACCACUGCAUCCUGUCUUAAUCCAAGGUACUGGAAAACCUUCCACAUGCCCAACCUGAGACCUGUUCCCCAUCGCUACCAUUUGGCCAAA | 0.831 |

Excerpt of the above (series 2):
| Substitution | ABA EC50 [µM] |
| --- | --- |
| L156P | 4.65 |
| Q51P | 531 |
| A84H | 0.814 |
| N149Q | 241 |
| T119Y | 956 |
| G102I | 197 |
| K54F | 65.7 |
| A84T | 272 |
